Results pooled from the literature.

SMILES	test system	setting	half-life [h]
CCNC(=O)c1noc(-c2cc(C(C)C)c(O)cc2O)c1NC(=O)CCN1CCOCC1	nude mouse, plasma	intraperitoneal, 80 mg/kg, single dose, tumour-bearing	5.8
CC(C)(C)OC(=O)N[C@H](Cc1ccccc1)[C@@H](O)CN1CCC(N2CCCCC2)CC1	Swiss mouse, plasma	subcutaneous, 20 mg/kg, single dose	< 4
Cc1sc2c(c1C)C(c1ccc(Cl)cc1)=N[C@@H](CC(=O)NCC(=O)N1CCC3(CCC(C(=O)N4CCN(C(=O)c5cc(Cc6n[nH]c(=O)c7ccccc67)ccc5F)CC4)CC3)CC1)c1nnc(C)n1-2	male C57BL/6 mouse, plasma	intraperitoneal, 10 mg/kg	2.3
Nc1ccn(C[C@@H](CO)OCP(=O)(O)OCCCS(=O)(=O)CCCCCCCCCCCCC2CCC2)c(=O)n1	mouse, plasma	intravenous, 3 mg/kg, single dose	0.4
COc1cc2c(cc1OC)CC(=O)N(C[C@H]1CCCN(CCOc3ccc(F)cc3)C1)CC2	female C57BL/6 mouse, plasma	intraperitoneal, 20 mg/kg	0.75
CC(C)Cn1c(SCC(=O)N2CCc3ccccc3C2)nc2cc(Cl)ccc2c1=O	male C57BL/6 mouse, plasma	intraperitoneal, 10 mg/kg	6.17
CN1CC[C@H](c2c(O)cc(O)c3c(=O)cc(/C=C/c4c(Cl)cccc4Cl)oc23)[C@H](O)C1	male BALB/c mouse, plasma	oral, 50 mg/kg	5.06
C[C@H]1CN(C(=O)c2cn(-c3ccnc(N)n3)c3cc(C#CC4(O)CCCCC4)ccc23)CCN1	CD-1 mouse, plasma	intravenous, 1 mg/kg	1.41
CCS(=O)(=O)c1ccccc1C(=O)N1CCN(c2nc3ccc(F)cc3s2)C[C@@H]1C	mouse, plasma	oral, 3 mg/kg	1.73
NS(=O)(=O)NCC(F)(F)c1ccccc1F	mouse, plasma	oral, 5 mg/kg	4.5
CCOc1c(C(C)(C)O)sc2cnc(Nc3ccc(N4CCC(N5CC6(COC6)C5)CC4)cc3OC)nc12	male C57BL/6 mouse, plasma	intravenous, 3 mg/kg	~11
COc1cccc(OCCN2CCC[C@H](CN3CCc4cc(OC)c(OC)cc4CC3=O)C2)c1	male C57BL/6 mouse, plasma	intraperitoneal, 20 mg/kg	0.79
CCOC(=O)c1nc2cc(Cl)c(Cl)cc2nc1N1CCN(C(=O)Nc2ccc(N3CCNCC3)cc2)CC1	male mouse, plasma	intravenous, 3 mg/kg	4.35
Cc1cc(C)c(S(=O)(=O)N(CC(=O)O)c2ccc(Nc3ccnc(N4CCCC4)n3)cc2)c(C)c1	nude mouse, plasma	intraperitoneal, 100 mg/kg, single dose	6.06
CN1CCC(N[C@@H]2CCc3[nH]c4c(C(N)=O)ccc(-c5ccccc5Cl)c4c3C2)CC1	mouse, plasma	intravenous, 2 mg/kg	12
COc1cc(N2CCN(C(=O)C3CCCN3)CC2)ccc1Nc1ncc(Cl)c(Nc2ccccc2P(C)(C)=O)n1 (stereo not drawn)	mouse, plasma	oral, 10 mg/kg	3.4
CCc1nc(N)nc(N)c1C#C[C@H](C)c1cc(-c2cc(C)nc(C)c2)ccc1Cl	mouse, plasma	oral, 5 mg/kg	4.55
COC(=O)c1ccc2c(c1)NC(=O)/C2=C(\Nc1ccc2c(c1)CCN2C(=O)CN1CCOCC1)c1ccccc1	CD-1 mouse, plasma	intravenous, 10 mg/kg	0.8
CCc1nc(N)nc(N)c1C#C[C@H](C)c1cc(-c2ccncc2)ccc1OC	mouse, plasma	oral, 16 mg/kg, single dose	0.19
Cc1ccc2oc(-c3c4c(N)n[nH]c(=O)c4nn3-c3ccc(NC(=O)/C=C/CN(C)C)cc3)c(C)c2c1	mouse, plasma	intravenous, 1 mg/kg	1.39
NC(=O)c1c(F)ccc(OCc2nc3cc(Cl)cnc3s2)c1F	mouse, plasma	intravenous, 3 mg/kg	0.617

SMILES	test system	setting	half-life [h]
Cc1cc(O)cc(O)c1C(=O)c1c2c3c(c(O)cc(C)c3oc1=O)C(=O)c1c(O)cc(O)cc1-2	male Kunming mouse, plasma	intraperitoneal, 15 mg/kg	0.712
CCC(=C(c1ccc(Cl)cc1)c1ccc(OCCN2CCOCC2)cc1)c1ccc(OC)cc1	male C57BL/6 mouse, plasma	oral, 400 mg/kg, single dose	8.5
COC(=O)C1OC(Oc2c(-c3ccccc3)oc3cc(O)c(O)c(O)c3c2=O)C(O)C(O)C1O (stereo not drawn)	BALB/c mouse, plasma	oral, 10 mg/kg, single dose	2.1
CC1=C(O)C(=O)C=C2C1=CC=C1[C@@]2(C)CC[C@@]2(C)[C@@H]3C[C@](C)(C(=O)NCCOCCOCCOCCOCC(=O)N[C@H](C(=O)N4C[C@H](O)C[C@H]4C(=O)N[C@@H](C)c4ccc(-c5scnc5C)cc4)C(C)(C)C)CC[C@]3(C)CC[C@]12C	male C57BL/6 mouse, plasma	intravenous, 2 mg/kg	5.36
CN(C)CCNC(=O)/C=C/[C@H](Cc1ccccc1)Nc1ccnc2cc(Cl)ccc12	CD-1 mouse, plasma	oral, 5 mg/kg, single dose	1.46
N#Cc1cnc2cc(OCC3CCNCC3)c(F)cc2c1Nc1cc(F)c(OCc2cccc(Cl)n2)cc1Cl	female CD-1 mouse, plasma	oral, 20 mg/kg	10.3
CCC/C(=C\C1=C(OC)C(=O)c2ccccc2C1=O)C(=O)NOC	mouse, plasma	oral, 25 mg/kg	22
COC(=O)N[C@H]1CC[C@@H](Nc2cc(NCc3ccccc3F)n3ncc(C(C)C)c3n2)CC1	female BALB/c mouse, plasma	oral, 10 mg/kg	2.75
O=C(c1ccccc1)N1C(c2ccc(OCC3CCN(CCCF)C3)cc2)c2ccc(O)cc2CC12CC2 (stereo not drawn)	C57BL/6 mouse, serum	intraperitoneal, 25 mg/kg	3.6
C=C(C)C(=O)Nc1ccc(-c2c(-c3ccc(Oc4nccc(C)n4)cc3)c3c(N)ncnc3n2C)cc1	nude mouse, plasma	intravenous	1.2
CCCCC(CC)CNC(=N)NC(=N)NCCCCCCCCNC(=N)NC(=N)NCC(CC)CCCC (stereo not drawn)	female BALB/c mouse, plasma	intraperitoneal, 5 mg/kg, single dose	5.15
CC[C@H](C)[C@H](NC(=O)[C@H](Cc1ccccc1)NC(=O)[C@H](CCC(=O)O)NC(=O)[C@H](CCCCN)NC(=O)[C@H](C)NC(=O)[C@H](C)NC(=O)[C@H](CCC(N)=O)NC(=O)CNC(=O)[C@H](CCC(=O)O)NC(=O)[C@H](CC(C)C)NC(=O)[C@H](Cc1ccc(O)cc1)NC(=O)[C@H](CO)NC(=O)[C@H](CO)NC(=O)[C@@H](NC(=O)[C@H](CC(=O)O)NC(=O)[C@H](CO)NC(=O)[C@@H](NC(=O)[C@H](Cc1ccccc1)NC(=O)[C@@H](NC(=O)CNC(=O)[C@H](CCC(=O)O)NC(=O)[C@H](C)NC(=O)[C@@H](N)Cc1c[nH]cn1)[C@@H](C)O)[C@@H](C)O)C(C)C)C(=O)N[C@@H](C)C(=O)N[C@@H](Cc1c[nH]c2ccccc12)C(=O)N[C@@H](CC(C)C)C(=O)N[C@H](C(=O)N[C@@H](CCCNC(=N)N)C(=O)NCC(=O)N[C@@H](CCCNC(=N)N)C(=O)NCC(=O)O)C(C)C	male CD-1 mouse, plasma	intravenous, 1 mg/kg, single dose	0.08
CCCC[C@@H]1NC(=O)[C@H](Cc2ccc(O)cc2)NC(=O)[C@@H]2CCCN2C(=O)[C@H](CC(=O)O)NC(=O)[C@H](C)NC(=O)[C@H](Cc2ccccc2)NC(=O)[C@@H]2CSCCC(=O)N3CN(CN(C3)C(=O)CCSC[C@@H](C(=O)N[C@@H](C)C(N)=O)NC1=O)C(=O)CCSC[C@H](NC(C)=O)C(=O)N[C@@H](CC(C)(C)C)C(=O)N1CCC[C@H]1C(=O)N[C@@H](CCC(=O)O)C(=O)N[C@H](CCCCNC(=O)CCc1cn(CCOCCOCCOCCN(CCOCCOCCOCCC(=O)N[C@@H](C)C(=O)N[C@@H](CCCCNC(=N)N)C(=O)N[C@@H](CC(=O)O)C(=O)N[C@H]3CSCCC(=O)N4CN5CN(C4)C(=O)CCSC[C@H](NC(=O)[C@H](CC(C)C)NC(=O)[C@@H]4CCCN4C(=O)[C@H](CC(N)=O)NC(=O)[C@H](C(C)C)NC(=O)[C@H](CC(C)C)NC(=O)[C@@H]4C[C@@H](O)CN4C3=O)C(=O)N[C@@H](CC(C)C)C(=O)N[C@@H](Cc3c[nH]cn3)C(=O)N3CCC[C@H]3C(=O)N[C@H](CC(=O)O)C(=O)N[C@@H](Cc3c[nH]c4ccccc34)C(=O)N[C@@H](CCCCNC(=N)N)C(=O)N[C@H](C(N)=O)CSCCC5=O)CCOCCOCCOCCn3cc(CCC(=O)NCCCC[C@H]4NC(=O)[C@H](CCC(=O)O)NC(=O)[C@@H]5CCCN5C(=O)[C@H](CC(C)(C)C)NC(=O)[C@@H](NC(C)=O)CSCCC(=O)N5CN6CN(C5)C(=O)CCSC[C@H](NC(=O)[C@H](Cc5ccc(O)cc5)NC(=O)[C@@H]5CCCN5C4=O)C(=O)N[C@@H](Cc4ccccc4)C(=O)N[C@@H](C)C(=O)N[C@@H](CC(=O)O)C(=O)N4CCC[C@H]4C(=O)N[C@@H](Cc4ccc(O)cc4)C(=O)N[C@@H](CCCC)C(=O)N[C@H](C(=O)N[C@@H](C)C(N)=O)CSCCC6=O)nn3)nn1)C(=O)N1CCC[C@H]1C(=O)N[C@@H](Cc1ccc(O)cc1)C(=O)N2	mouse, plasma	intraperitoneal, 15 mg/kg	~2
CC(=O)N[C@@H](Cc1ccc(O)cc1)CN(CC(=O)N[C@@H](CCCCN)CN(CC(=O)N[C@@H](Cc1ccccc1)CN(CC(=O)N[C@H]1CCCCNc2c(F)c(F)c(c(F)c2F)S(=O)(=O)c2c(F)c(F)c(c(F)c2F)NCCCC[C@@H](CN(CC(=O)N[C@@H](C)CN(CC(N)=O)S(C)(=O)=O)S(C)(=O)=O)NC(=O)CN(S(=O)(=O)CC(C)C)C[C@H](CC(C)C)NC(=O)CN(S(=O)(=O)CCN)C1)S(=O)(=O)CC(C)C)S(=O)(=O)CCN)S(C)(=O)=O	C57BL/6 mouse, plasma	intraperitoneal, 50 mg/kg	6
Cc1nc(N[C@@H](C)c2ccc(-c3nc(C4CC4)no3)cc2)c2cc(C)oc2n1	mouse, plasma	oral, 10 mg/kg	> 12
CC1=C(/C=C/C(=O)N2CCN(C(N)=O)CC2)C(C)(C)CCC1	female mouse, plasma	oral, 120 mg/kg, single dose	1.09
O=c1c2cc(-c3ccc(Cl)cc3)nc(-c3cccnc3)c2ncn1C1CCC(O)CC1 (stereo not drawn)	BALB/c mouse, plasma	oral, 100 mg/kg, single dose	29.7
C[N+]1(CC(=O)OC2CCCCCCCCCCC2)CCCCC1	mouse, plasma	intraperitoneal, 5 mg/kg, single dose	4.6
O=C1OC2(c3ccccc31)c1cc(I)c(O)c(I)c1Oc1c2cc(I)c(O)c1I	female C57BL/6 mouse, plasma	oral, 100 mg/kg	3
O=C1CCc2ccc(NS(=O)(=O)c3cccc(Oc4ccccc4)c3)cc2N1	C57BL/6 mouse, brain	oral, 3 mg/kg	3.95
COc1cccc2c1C(=O)c1c(O)c3c(c(O)c1C2=O)C[C@@](O)(C(=O)CO)C[C@@H]3O[C@H]1C[C@H](N)[C@@H](O)[C@H](C)O1	male Kunming mouse, plasma	intravenous, 5 mg/kg	0.681

A few entries again:
SMILES	test system	setting	half-life [h]
NC(=O)c1c(F)ccc(OCc2nc3cc(Cl)cnc3s2)c1F	mouse, plasma	intravenous, 3 mg/kg	0.617
Cc1nc(N[C@@H](C)c2ccc(-c3nc(C4CC4)no3)cc2)c2cc(C)oc2n1	mouse, plasma	oral, 10 mg/kg	> 12
NS(=O)(=O)NCC(F)(F)c1ccccc1F	mouse, plasma	oral, 5 mg/kg	4.5
